{"data": "Assay results of several laboratories", "note": "Numbered parts are unrelated; each lists some results of a single study.", "sequence of UniProt P10721 (whole entry, unmodified, looked up)": "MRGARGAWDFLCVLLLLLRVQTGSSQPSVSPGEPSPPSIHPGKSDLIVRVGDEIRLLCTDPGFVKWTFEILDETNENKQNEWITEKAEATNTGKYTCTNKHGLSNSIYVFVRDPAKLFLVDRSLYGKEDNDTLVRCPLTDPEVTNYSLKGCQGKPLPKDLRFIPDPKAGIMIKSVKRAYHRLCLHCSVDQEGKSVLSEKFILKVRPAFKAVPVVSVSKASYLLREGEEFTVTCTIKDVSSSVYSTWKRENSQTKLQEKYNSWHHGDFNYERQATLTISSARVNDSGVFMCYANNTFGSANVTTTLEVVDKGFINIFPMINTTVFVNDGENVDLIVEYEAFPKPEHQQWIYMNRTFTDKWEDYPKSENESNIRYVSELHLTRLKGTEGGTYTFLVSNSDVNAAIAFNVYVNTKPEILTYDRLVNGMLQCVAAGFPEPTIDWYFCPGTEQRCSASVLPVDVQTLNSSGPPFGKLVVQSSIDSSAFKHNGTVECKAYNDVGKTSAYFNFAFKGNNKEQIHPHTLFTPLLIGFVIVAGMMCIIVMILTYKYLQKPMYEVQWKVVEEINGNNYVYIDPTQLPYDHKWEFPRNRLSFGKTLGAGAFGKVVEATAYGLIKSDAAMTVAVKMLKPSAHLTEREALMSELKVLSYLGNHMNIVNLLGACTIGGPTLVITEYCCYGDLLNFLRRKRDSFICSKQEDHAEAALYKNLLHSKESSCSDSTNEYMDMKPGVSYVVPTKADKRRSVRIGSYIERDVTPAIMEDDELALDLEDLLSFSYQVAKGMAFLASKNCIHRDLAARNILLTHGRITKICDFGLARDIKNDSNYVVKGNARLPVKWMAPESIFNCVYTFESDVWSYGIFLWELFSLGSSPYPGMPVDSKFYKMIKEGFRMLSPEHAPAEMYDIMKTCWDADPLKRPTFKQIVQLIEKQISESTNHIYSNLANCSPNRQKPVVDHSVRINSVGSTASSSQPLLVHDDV", "sequence of UniProt Q9UK32 (whole entry, looked up)": "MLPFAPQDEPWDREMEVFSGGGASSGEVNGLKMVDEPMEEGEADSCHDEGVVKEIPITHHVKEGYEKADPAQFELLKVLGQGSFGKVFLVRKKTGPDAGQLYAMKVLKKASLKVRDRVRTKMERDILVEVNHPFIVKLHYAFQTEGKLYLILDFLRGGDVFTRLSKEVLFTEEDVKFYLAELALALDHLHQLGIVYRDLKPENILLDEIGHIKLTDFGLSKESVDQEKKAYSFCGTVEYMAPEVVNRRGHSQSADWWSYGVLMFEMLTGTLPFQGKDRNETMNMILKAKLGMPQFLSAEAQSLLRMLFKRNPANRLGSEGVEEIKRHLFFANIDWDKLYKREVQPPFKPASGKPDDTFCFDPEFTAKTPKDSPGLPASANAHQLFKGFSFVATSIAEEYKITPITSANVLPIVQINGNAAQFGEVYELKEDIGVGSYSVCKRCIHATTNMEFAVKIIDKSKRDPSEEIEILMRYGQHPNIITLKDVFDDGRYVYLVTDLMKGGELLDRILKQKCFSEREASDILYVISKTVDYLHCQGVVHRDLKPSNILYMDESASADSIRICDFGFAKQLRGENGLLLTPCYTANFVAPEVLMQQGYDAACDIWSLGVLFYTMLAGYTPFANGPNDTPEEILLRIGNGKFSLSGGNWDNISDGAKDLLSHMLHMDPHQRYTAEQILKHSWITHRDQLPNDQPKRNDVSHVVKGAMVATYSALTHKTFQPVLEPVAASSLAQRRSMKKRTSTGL", "sequence of UniProt Q16620 (whole entry, looked up)": "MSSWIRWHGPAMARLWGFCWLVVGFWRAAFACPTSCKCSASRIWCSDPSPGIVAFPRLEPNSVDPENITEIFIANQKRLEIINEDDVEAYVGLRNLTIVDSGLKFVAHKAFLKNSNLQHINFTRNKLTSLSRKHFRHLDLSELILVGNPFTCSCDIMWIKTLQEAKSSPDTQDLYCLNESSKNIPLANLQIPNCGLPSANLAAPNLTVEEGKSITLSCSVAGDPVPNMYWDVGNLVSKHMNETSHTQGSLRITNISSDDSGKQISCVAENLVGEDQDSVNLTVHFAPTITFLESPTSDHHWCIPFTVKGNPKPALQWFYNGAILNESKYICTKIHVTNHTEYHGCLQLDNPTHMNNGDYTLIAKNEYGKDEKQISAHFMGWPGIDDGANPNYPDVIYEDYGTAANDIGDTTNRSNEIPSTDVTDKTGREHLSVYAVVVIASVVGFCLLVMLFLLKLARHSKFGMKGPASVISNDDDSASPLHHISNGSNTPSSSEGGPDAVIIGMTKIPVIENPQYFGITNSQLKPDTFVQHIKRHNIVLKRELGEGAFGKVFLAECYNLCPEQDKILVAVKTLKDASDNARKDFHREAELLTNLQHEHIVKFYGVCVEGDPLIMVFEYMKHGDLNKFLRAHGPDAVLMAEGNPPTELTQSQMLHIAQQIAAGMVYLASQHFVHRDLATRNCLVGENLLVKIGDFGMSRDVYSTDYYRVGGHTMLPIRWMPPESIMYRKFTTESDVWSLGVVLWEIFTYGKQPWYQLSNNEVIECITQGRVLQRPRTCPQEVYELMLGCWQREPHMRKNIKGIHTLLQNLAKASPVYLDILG", "sequence of UniProt P08631 (whole entry, looked up)": "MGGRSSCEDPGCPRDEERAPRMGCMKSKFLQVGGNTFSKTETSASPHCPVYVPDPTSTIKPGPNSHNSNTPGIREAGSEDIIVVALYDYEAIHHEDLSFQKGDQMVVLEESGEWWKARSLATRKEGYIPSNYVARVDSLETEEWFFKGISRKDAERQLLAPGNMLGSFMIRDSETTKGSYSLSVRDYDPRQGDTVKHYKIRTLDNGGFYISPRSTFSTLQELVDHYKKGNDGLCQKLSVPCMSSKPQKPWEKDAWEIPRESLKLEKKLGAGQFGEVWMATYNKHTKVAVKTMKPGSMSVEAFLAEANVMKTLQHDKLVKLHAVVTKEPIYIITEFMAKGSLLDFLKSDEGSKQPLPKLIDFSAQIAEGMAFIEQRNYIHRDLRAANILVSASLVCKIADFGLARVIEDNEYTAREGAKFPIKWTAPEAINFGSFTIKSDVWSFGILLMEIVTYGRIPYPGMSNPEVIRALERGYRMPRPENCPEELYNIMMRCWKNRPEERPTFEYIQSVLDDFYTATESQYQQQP", "sequence of UniProt P50613 (whole entry, looked up)": "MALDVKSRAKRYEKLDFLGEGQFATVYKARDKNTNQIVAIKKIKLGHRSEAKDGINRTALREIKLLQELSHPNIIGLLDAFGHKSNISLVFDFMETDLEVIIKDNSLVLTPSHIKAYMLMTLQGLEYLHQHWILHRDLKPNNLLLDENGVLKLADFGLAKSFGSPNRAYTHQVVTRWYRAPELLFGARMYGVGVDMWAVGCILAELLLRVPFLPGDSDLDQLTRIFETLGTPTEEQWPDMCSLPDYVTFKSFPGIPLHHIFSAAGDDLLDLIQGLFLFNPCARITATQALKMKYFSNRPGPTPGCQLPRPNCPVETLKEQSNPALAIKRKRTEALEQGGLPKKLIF"}
{"data": "Series 1", "target": "panel of 300 human kinases", "concentration": "0.5 µM", "reading": "higher = more selective"}
{"SMILES": "CS(=O)(=O)CCNCc1ccc(-c2ccc3ncnc(Nc4ccc(OCc5cccc(F)c5)c(Cl)c4)c3c2)o1", "Gini score": 0.77}
{"SMILES": "O=C1Cc2c([nH]c3ccc(Br)cc23)-c2ccccc2N1", "Gini score": 0.7}
{"SMILES": "O=[N+]([O-])c1ccc(-c2nc(-c3ccncc3)c(-c3ccc(F)cc3)[nH]2)cc1", "Gini score": 0.66}
{"SMILES": "COc1cc2ncnc(N3CCN(C(=O)Nc4ccc(Oc5ccccc5)cc4)CC3)c2cc1OC", "Gini score": 0.62}
{"SMILES": "CC(=O)O/N=C1/C(c2c(O)[nH]c3cc(Br)ccc23)=Nc2ccccc21", "Gini score": 0.57}
{"SMILES": "O=C1NC(=O)c2c1c1c3ccccc3[nH]c1n1cncc21", "Gini score": 0.52}
{"SMILES": "c1ccc2c(-c3ccncc3)c[nH]c2c1", "Gini score": 0.71}
{"SMILES": "CC(C)c1nn(-c2c(Cl)cccc2Cl)c2nc(Cc3ccc(OCCO)cc3)[nH]c(=O)c12", "Gini score": 0.72}
{"SMILES": "COc1ccc2c(c1)c(C1=C(c3c[nH]c4ccccc34)C(=O)NC1=O)cn2CCCN(C)C", "Gini score": 0.59}
{"data": "Series 2", "target": "Calcium/calmodulin-dependent protein kinase type II subunit alpha (CAMK2A, Homo sapiens, UniProt Q9UQM7)", "observed": "enzyme activity", "mode": "inhibitor", "concentration": "10 µM", "sequence of UniProt Q9UQM7 (whole entry, looked up)": "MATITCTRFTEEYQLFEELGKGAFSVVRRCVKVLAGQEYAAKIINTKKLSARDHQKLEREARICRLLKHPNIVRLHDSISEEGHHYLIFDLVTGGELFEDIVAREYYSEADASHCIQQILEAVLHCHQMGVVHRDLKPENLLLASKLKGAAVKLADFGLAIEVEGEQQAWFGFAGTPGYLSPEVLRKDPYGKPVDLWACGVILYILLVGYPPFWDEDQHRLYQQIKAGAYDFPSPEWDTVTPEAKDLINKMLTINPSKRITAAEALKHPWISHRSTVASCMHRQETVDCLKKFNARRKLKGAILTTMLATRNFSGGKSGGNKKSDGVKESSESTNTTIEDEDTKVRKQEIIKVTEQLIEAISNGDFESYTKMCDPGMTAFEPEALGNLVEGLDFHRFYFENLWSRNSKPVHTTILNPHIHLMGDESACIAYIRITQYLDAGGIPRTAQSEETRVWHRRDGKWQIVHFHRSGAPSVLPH"}
{"SMILES": "NCCNc1ccc(NCCN)c2c1C(=O)c1ccncc1C2=O", "inhibition [%]": 15}
{"SMILES": "OC[C@H]1NC[C@H](O)[C@@H](O)[C@H]1O", "inhibition [%]": -1}
{"SMILES": "O=C(O)C(O)c1ccccc1 (centres unmarked)", "inhibition [%]": 10}
{"SMILES": "CC1(C)O[C@@H]2C[C@H]3[C@@H]4C[C@H](F)C5=CC(=O)C=C[C@]5(C)[C@@]4(F)[C@@H](O)C[C@]3(C)[C@]2(C(=O)CO)O1", "inhibition [%]": 1}
{"SMILES": "COC(=O)c1cc(O)c(O)c(O)c1", "inhibition [%]": -5}
{"SMILES": "CC(=O)N[C@@H]1[C@@H](O)[C@H](O)[C@@H](CO)O[C@@H]1O", "inhibition [%]": 25}
{"SMILES": "O=C(O)CCCCCC(=O)O", "inhibition [%]": 1}
{"SMILES": "O=C(O[C@@H]1C[C@@H]2C[C@H]3C[C@H](C1)N2CC3=O)c1c[nH]c2ccccc12", "inhibition [%]": -8}
{"SMILES": "O=c1cc(-c2ccccc2)oc2ccccc12", "inhibition [%]": -3}
{"data": "Series 3", "Compound": "C=CCc1ccc(O)c(-c2ccc(O)c(CC=C)c2)c1", "observed": "chloride current", "method": "whole-cell voltage clamp", "ANO1 del476-501/F803A": "Anoctamin-1 (ANO1, Homo sapiens, UniProt Q5XXA6, del476-501/F803A)", "sequence of UniProt Q5XXA6 (whole entry, unmodified, looked up)": "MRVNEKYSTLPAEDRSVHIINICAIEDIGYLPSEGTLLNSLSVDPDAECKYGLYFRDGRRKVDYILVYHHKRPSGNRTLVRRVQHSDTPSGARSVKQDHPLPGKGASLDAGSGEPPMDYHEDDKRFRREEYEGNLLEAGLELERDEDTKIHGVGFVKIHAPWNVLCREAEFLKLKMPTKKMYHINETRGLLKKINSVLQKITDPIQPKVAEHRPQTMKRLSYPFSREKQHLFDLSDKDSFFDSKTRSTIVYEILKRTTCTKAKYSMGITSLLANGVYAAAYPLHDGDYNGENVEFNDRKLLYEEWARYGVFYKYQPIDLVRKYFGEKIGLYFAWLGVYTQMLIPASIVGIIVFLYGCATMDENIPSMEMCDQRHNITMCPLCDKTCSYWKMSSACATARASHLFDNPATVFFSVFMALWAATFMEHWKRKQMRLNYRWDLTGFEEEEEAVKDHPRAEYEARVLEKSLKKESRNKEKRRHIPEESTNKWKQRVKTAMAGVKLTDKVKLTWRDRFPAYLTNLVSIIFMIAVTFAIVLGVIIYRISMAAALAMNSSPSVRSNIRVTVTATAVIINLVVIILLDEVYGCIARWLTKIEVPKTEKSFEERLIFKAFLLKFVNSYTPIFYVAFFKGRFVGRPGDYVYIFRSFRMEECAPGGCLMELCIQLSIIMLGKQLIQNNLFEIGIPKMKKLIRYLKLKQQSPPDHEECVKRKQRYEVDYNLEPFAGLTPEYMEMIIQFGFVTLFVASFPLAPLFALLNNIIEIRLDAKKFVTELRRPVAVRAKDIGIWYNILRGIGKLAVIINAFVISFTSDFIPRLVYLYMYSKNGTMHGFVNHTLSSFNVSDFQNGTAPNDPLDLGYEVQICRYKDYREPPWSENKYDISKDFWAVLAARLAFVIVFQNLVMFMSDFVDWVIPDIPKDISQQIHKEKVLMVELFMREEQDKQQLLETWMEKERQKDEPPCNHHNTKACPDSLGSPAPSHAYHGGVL"}
{"target": "Anoctamin-1 (ANO1, Homo sapiens, UniProt Q5XXA6, del476-501/F628I)", "mode": "inhibitor", "notes": "F602I mutant at 40 mV", "IC50 [µM]": 8.95}
{"target": "Anoctamin-1 (ANO1, Homo sapiens, UniProt Q5XXA6, del476-501/F627A)", "notes": "membrane voltage 80 mV", "IC50 [µM]": 7.05}
{"target": "Anoctamin-1 (ANO1, Homo sapiens, UniProt Q5XXA6, del476-501/F803Y)", "mode": "inhibitor", "concentration": "100 mV holding voltage", "IC50 [µM]": 13.5}
{"target": "Anoctamin-1 (ANO1, Homo sapiens, UniProt Q5XXA6, del476-501/R631D)", "mode": "inhibitor", "notes": "R605D mutant at 80 mV", "IC50 [µM]": 25.7}
{"target": "Anoctamin-1 (ANO1, Homo sapiens, UniProt Q5XXA6, del476-501/M544A)", "notes": "membrane voltage -60 mV", "IC50 [µM]": 3.71}
{"target": "Anoctamin-1 (ANO1, Homo sapiens, UniProt Q5XXA6, del476-501/F807Y)", "mode": "inhibitor", "concentration": "100 mV holding voltage", "IC50 [µM]": 13.4}
{"target": "Anoctamin-1 (ANO1, Homo sapiens, UniProt Q5XXA6, del476-501/L548A)", "notes": "membrane voltage -60 mV", "IC50 [µM]": 6.27}
{"target": "ANO1 del476-501/F803A", "notes": "membrane voltage 40 mV", "IC50 [µM]": 11.9}
{"target": "ANO1 del476-501/F803A", "notes": "membrane voltage -40 mV", "IC50 [µM]": 14}
{"target": "Anoctamin-1 (ANO1, Homo sapiens, UniProt Q5XXA6, del476-501/E650A)", "notes": "membrane voltage -100 mV", "IC50 [µM]": 9.34}
{"target": "Anoctamin-1 (ANO1, Homo sapiens, UniProt Q5XXA6, del476-501)", "mode": "inhibitor", "notes": "-40 mV voltage", "added": "300 nM Ca2+", "IC50 [µM]": 2.8}
{"target": "Anoctamin-1 (ANO1, Homo sapiens, UniProt Q5XXA6, del476-501/F807W)", "mode": "inhibitor", "concentration": "100 mV holding voltage", "IC50 [µM]": 12.1}
{"target": "Anoctamin-1 (ANO1, Homo sapiens, UniProt Q5XXA6, del476-501/F803I)", "mode": "inhibitor", "concentration": "40 mV holding voltage", "IC50 [µM]": 6.73}
{"data": "Series 4", "SMILES": "Nc1c(C(=O)NCc2ccc(C(=O)NCCCC3CCCCC3)cc2)cnn1-c1ccccc1", "method": "competition with immobilised ligand"}
{"target": "Ephrin type-A receptor 6 (EPHA6, Homo sapiens, UniProt Q9UF33)", "observed": "cell-free assay", "concentration": "0.1 µM", "remaining binding [%]": 94}
{"target": "Cyclin-dependent kinase 2 (CDK2, Homo sapiens, UniProt P24941)", "observed": "cell-free assay", "concentration": "0.1 µM", "remaining binding [%]": 96}
{"target": "Phosphatidylinositol 4-phosphate 5-kinase type-1 alpha (PIP5K1A, Homo sapiens, UniProt Q99755)", "observed": "cell-free assay", "concentration": "0.1 µM", "remaining binding [%]": 100}
{"target": "Macrophage-stimulating protein receptor (MST1R, Homo sapiens, UniProt Q04912)", "observed": "cell-free assay", "concentration": "0.1 µM", "remaining binding [%]": 100}
{"target": "Serine/threonine-protein kinase pim-2 (PIM2, Homo sapiens, UniProt Q9P1W9)", "observed": "cell-free assay", "concentration": "0.1 µM", "remaining binding [%]": 100}
{"target": "Mitogen-activated protein kinase kinase kinase 7 (MAP3K7, Homo sapiens, UniProt O43318)", "observed": "cell-free assay", "concentration": "0.1 µM", "remaining binding [%]": 100}
{"target": "Mitogen-activated protein kinase 7 (MAPK7, Homo sapiens, UniProt Q13164)", "observed": "cell-free assay", "concentration": "0.1 µM", "remaining binding [%]": 78}
{"target": "Serine/threonine-protein kinase TAO1 (TAOK1, Homo sapiens, UniProt Q7L7X3)", "observed": "cell-free assay", "concentration": "0.1 µM", "remaining binding [%]": 91}
{"target": "Serine/threonine-protein kinase NLK (NLK, Homo sapiens, UniProt Q9UBE8)", "observed": "cell-free assay", "concentration": "0.1 µM", "remaining binding [%]": 96}
{"target": "Tyrosine-protein kinase HCK (HCK, Homo sapiens, UniProt P08631)", "observed": "cell-free assay", "concentration": "0.1 µM", "remaining binding [%]": 100}
{"target": "Serine/threonine-protein kinase TNNI3K (TNNI3K, Homo sapiens, UniProt Q59H18)", "observed": "cell-free assay", "concentration": "0.1 µM", "remaining binding [%]": 100}
{"target": "Cyclin-dependent kinase 7 (CDK7, Homo sapiens, UniProt P50613)", "observed": "cell-free assay", "concentration": "0.1 µM", "remaining binding [%]": 100}
{"target": "Serine/threonine-protein kinase DCLK3 (DCLK3, Homo sapiens, UniProt Q9C098)", "observed": "cell-free assay", "concentration": "0.1 µM", "remaining binding [%]": 100}
{"target": "Mast/stem cell growth factor receptor Kit (KIT, Homo sapiens, UniProt P10721, T670I/V559D)", "observed": "cell-free assay", "concentration": "0.1 µM", "remaining binding [%]": 98}
{"target": "Mast/stem cell growth factor receptor Kit (KIT, Homo sapiens, UniProt P10721, V559D/V654A)", "observed": "cell-free assay", "concentration": "0.1 µM", "remaining binding [%]": 100}
{"target": "Ribosomal protein S6 kinase alpha-6, C-terminal kinase domain (RPS6KA6, Homo sapiens, UniProt Q9UK32)", "observed": "cell-free assay", "concentration": "0.1 µM", "remaining binding [%]": 61}
{"target": "TGF-beta receptor type-2 (TGFBR2, Homo sapiens, UniProt P37173)", "observed": "cell-free assay", "concentration": "0.1 µM", "remaining binding [%]": 99}
{"target": "Mitogen-activated protein kinase kinase kinase 19 (MAP3K19, Homo sapiens, UniProt Q56UN5)", "observed": "cell-free assay", "concentration": "0.1 µM", "remaining binding [%]": 77}
{"target": "Activin receptor type-1 (ACVR1, Homo sapiens, UniProt Q04771)", "observed": "cell-free assay", "concentration": "0.1 µM", "remaining binding [%]": 100}
{"target": "BDNF/NT-3 growth factors receptor (NTRK2, Homo sapiens, UniProt Q16620)", "observed": "cell-free assay", "concentration": "0.1 µM", "remaining binding [%]": 85}
{"target": "Serine/threonine-protein kinase 38-like (STK38L, Homo sapiens, UniProt Q9Y2H1)", "observed": "binding", "concentration": "1 µM", "remaining binding [%]": 44}
{"target": "Glycogen synthase kinase-3 beta (GSK3B, Homo sapiens, UniProt P49841)", "observed": "cell-free assay", "concentration": "0.1 µM", "remaining binding [%]": 100}
{"target": "Dual specificity mitogen-activated protein kinase kinase 5 (MAP2K5, Homo sapiens, UniProt Q13163)", "observed": "cell-free assay", "concentration": "0.1 µM", "remaining binding [%]": 100}
{"target": "Serine/threonine-protein kinase BRSK2 (BRSK2, Homo sapiens, UniProt Q8IWQ3)", "observed": "cell-free assay", "concentration": "0.1 µM", "remaining binding [%]": 79}
{"target": "Rho-associated protein kinase 1 (ROCK1, Homo sapiens, UniProt Q13464)", "observed": "cell-free assay", "concentration": "0.1 µM", "remaining binding [%]": 100}
{"note": "A few entries again (series 4):"}
{"target": "Mast/stem cell growth factor receptor Kit (KIT, Homo sapiens, UniProt P10721, V559D/V654A)", "observed": "cell-free assay", "concentration": "0.1 µM", "remaining binding [%]": 100}
{"target": "Ribosomal protein S6 kinase alpha-6, C-terminal kinase domain (RPS6KA6, Homo sapiens, UniProt Q9UK32)", "observed": "cell-free assay", "concentration": "0.1 µM", "remaining binding [%]": 61}
{"target": "TGF-beta receptor type-2 (TGFBR2, Homo sapiens, UniProt P37173)", "observed": "cell-free assay", "concentration": "0.1 µM", "remaining binding [%]": 99}
{"target": "Mitogen-activated protein kinase kinase kinase 19 (MAP3K19, Homo sapiens, UniProt Q56UN5)", "observed": "cell-free assay", "concentration": "0.1 µM", "remaining binding [%]": 77}
{"target": "Activin receptor type-1 (ACVR1, Homo sapiens, UniProt Q04771)", "observed": "cell-free assay", "concentration": "0.1 µM", "remaining binding [%]": 100}
{"target": "BDNF/NT-3 growth factors receptor (NTRK2, Homo sapiens, UniProt Q16620)", "observed": "cell-free assay", "concentration": "0.1 µM", "remaining binding [%]": 85}
{"target": "Serine/threonine-protein kinase 38-like (STK38L, Homo sapiens, UniProt Q9Y2H1)", "observed": "binding", "concentration": "1 µM", "remaining binding [%]": 44}
{"target": "Glycogen synthase kinase-3 beta (GSK3B, Homo sapiens, UniProt P49841)", "observed": "cell-free assay", "concentration": "0.1 µM", "remaining binding [%]": 100}
{"target": "Dual specificity mitogen-activated protein kinase kinase 5 (MAP2K5, Homo sapiens, UniProt Q13163)", "observed": "cell-free assay", "concentration": "0.1 µM", "remaining binding [%]": 100}
